Results gathered from unrelated publications.
Each numbered part is a random draw from the data of one study; scales do not carry over between parts.

Series 1
Target: Ras GTPase-activating protein-binding protein 1, full length (G3BP1, Homo sapiens, UniProt Q13283)
Chain of UniProt Q13283 (whole entry, looked up): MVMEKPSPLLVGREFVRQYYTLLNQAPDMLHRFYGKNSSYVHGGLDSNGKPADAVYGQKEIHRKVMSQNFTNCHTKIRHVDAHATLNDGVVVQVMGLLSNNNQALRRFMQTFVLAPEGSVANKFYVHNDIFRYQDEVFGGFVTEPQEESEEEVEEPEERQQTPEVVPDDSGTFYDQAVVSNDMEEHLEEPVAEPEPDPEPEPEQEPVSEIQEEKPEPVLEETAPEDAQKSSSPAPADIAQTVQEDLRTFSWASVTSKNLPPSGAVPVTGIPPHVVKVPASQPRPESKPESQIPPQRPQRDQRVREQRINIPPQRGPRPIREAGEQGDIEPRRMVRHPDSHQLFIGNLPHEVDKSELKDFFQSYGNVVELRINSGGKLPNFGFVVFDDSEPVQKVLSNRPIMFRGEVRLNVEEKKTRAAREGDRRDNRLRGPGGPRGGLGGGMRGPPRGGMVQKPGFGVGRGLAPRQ
Technique: RNA Bind-n-Seq
Form: RNA
Medium: in vitro
Concentration: 200 nM
Notes: whole 134-nt RNA, ends assumed
Together with: 150 mM LiCl
Baseline: input library
Direction: higher = stronger binding
Each molecule: 7-deaza-guanosine replaces G
Oligonucleotide | log2 enrichment
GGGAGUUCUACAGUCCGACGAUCUCCUGUGCUACACAUCGUAUGUACCGAAUCGGGGAAAAAGGGGAAAAAAAGGGGUGGGGAAAGUAUUAUGUUACGCCGUUCGGAUCUGCAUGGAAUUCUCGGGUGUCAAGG | -0.135
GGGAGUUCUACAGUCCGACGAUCGCAGGAAGUAAAAACAAAUGGAAAUGCUUCGGAUAGUGGCAGUGGUGGGGGUUGCUAAGGAAAGGGUGGGAUGGGAGUGGGUAAAGAGUUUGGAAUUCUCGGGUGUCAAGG | 0.0339
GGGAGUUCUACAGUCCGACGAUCGCAGGAAGUAAAAACAAAUGGAAAUGCUUCGGAUACUGGCAGGGGUGGGGGUUGCUAAGGAAAGGGUGGGAUGGGAGUGGGUAAAGAGUUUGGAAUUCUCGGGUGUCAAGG | -0.0352
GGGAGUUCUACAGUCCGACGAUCUGGGAGGUGGAUUUUGUUUAUUUUUUUAGCUCAUUUCCAGGGGUGGGAAUUUUUUUUUGAUAUGUGUCAUGAAUAAAGUUGUUUUUGAAAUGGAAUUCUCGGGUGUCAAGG | -0.688
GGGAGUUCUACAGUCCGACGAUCAGUCCUGUGCUACACAUCGUAUGUACCGAAUCGGCCCCCGGGCCCCCGGGCCCCCGGGAAAGUAUUAUGUUACGCCGUUCGGAUCUGCACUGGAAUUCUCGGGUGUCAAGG | -1.36
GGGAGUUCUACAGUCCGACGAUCCCCAGACAACACGCACCCACACAGACACAGAGGGAAGGGGUUGGGAUGGGGACAGGGUGCACAGCAGGGCGGGGUAGGACCCCAGCCCCUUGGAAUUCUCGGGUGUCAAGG | -1.34
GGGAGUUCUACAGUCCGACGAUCGCAGGAAGUAAAAACAAAUGGAAAUGUUUCGGAUAGUGGCAGGGGUGGGGGUUGCUAAGGAAAGGGUGGGAUGGGAGUGGGUAAAGAGUUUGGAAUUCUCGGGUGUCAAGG | -0.0554
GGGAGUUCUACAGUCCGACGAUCCACAGACAACACGCACCCACACAGACACAGAGGGAAGGGGUUGGGAUGGGGACAGGGUGCACAGCAGGGCGGGGUAGGACCCCAGCCCCGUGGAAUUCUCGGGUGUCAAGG | -0.266

Series 2
Target: human cyclin A2
Observed: peptide binding
Technique: competitive growth sequencing
Form: peptide
Organism: Saccharomyces cerevisiae
Strain: cyclin A2-Cln2 fusion strain
Concentration: concentration not given
Notes: peptide tiling library
Baseline: unfused Cln2 strain
Direction: direction not given
Molecule | binding score
RVSGLLSWTLSRVLWL | 1.21
GPPAKARAELGESGHQ | -0.345
DGCSPIKNWSPMRL | -0.319
KPCHRAVACFDSTTAP | -0.829
SHTLKGARAVFDNQLT | -0.219
PPKPLAKARFDIEGSD | -0.528
RRRIKLPESDSSED | 0.136
DSGFCLDSPGPLDSKE | -0.459
KSKHEEEEWTDDDLVE | 0.115
VKTKKRLNFDDK | 2.61
QNPCGSKACRRLFGPV | 2.49
KVKRRLDLDIDGLQKE | 1.79
SDSTVTKLDFDLEP | -0.144
NFETPEAETPIRSPFK | -0.136
SVKQAGPAFEHASNND | 0.226
LKGRRLVFDN | 1.58
VLVRTSACRSLFGPVD | 1.17
LENIEPLQVSFAVLSS | -0.123
NSMKELNFSHLPSNSV | -0.13
KPCHRRVLCFDSTTAP | 0.195
RPPVKARADLETDHQY | -0.322
KRRLDLETDHQY | 2.68
FQDSGYNELKSCSFDN | 0.305
SMTDFYHSKRRLIFSK | 1.07
GRLPAKAKADLEGIGR | -0.518

Series 3
Target: Histone acetyltransferase KAT6A, winged helix 2, GST fusion (KAT6A, Homo sapiens, UniProt Q92794, residues 85-181)
Technique: protein binding microarray
Form: double-stranded DNA, one strand shown
Medium: in vitro
Concentration: not given
Notes: 8-mer, flanks averaged, mean of 2 arrays, mostly near background
Baseline: not given
Direction: higher = stronger binding
Target sequence (chain): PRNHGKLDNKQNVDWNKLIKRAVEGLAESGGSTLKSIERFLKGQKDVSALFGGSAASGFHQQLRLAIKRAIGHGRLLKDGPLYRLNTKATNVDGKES
Oligonucleotide | E-score
TACTCTGA | -0.0969
AATTTTCC | 0.142
GCTTATGA | 0.0417
AAAATAAG | 0.0247
TCTATGCA | 0.0201
TCGGCCCA | 0.101
ACCTATCA | -0.143
ATGACTGC | 0.0242
CCCCCGGC | 0.188
ACCTGACA | -0.0677
CGGAACAC | 0.0196
ATACACTA | -0.175
AGGTTGAC | -0.0376
AGGGGGCC | 0.0744
GTGTTGTA | -0.158
GCGGCAGC | 0.0655
ATATCGCG | 0.184
ATTTGCAA | 0.161
AGTTTGAG | 0.0342
GACGTCCA | -0.169
GTATCCGA | 0.0327
ATTTAACC | -0.0035
GCGGGGCA | 0.144
AGGCAGGC | 0.14
ATGGCATA | 0.0482

Series 4
Target: Sal-like protein 4, full length isoform A (SALL4, Homo sapiens, UniProt Q9UJQ4, residues 1-1053)
Chain of UniProt Q9UJQ4 (whole entry, looked up): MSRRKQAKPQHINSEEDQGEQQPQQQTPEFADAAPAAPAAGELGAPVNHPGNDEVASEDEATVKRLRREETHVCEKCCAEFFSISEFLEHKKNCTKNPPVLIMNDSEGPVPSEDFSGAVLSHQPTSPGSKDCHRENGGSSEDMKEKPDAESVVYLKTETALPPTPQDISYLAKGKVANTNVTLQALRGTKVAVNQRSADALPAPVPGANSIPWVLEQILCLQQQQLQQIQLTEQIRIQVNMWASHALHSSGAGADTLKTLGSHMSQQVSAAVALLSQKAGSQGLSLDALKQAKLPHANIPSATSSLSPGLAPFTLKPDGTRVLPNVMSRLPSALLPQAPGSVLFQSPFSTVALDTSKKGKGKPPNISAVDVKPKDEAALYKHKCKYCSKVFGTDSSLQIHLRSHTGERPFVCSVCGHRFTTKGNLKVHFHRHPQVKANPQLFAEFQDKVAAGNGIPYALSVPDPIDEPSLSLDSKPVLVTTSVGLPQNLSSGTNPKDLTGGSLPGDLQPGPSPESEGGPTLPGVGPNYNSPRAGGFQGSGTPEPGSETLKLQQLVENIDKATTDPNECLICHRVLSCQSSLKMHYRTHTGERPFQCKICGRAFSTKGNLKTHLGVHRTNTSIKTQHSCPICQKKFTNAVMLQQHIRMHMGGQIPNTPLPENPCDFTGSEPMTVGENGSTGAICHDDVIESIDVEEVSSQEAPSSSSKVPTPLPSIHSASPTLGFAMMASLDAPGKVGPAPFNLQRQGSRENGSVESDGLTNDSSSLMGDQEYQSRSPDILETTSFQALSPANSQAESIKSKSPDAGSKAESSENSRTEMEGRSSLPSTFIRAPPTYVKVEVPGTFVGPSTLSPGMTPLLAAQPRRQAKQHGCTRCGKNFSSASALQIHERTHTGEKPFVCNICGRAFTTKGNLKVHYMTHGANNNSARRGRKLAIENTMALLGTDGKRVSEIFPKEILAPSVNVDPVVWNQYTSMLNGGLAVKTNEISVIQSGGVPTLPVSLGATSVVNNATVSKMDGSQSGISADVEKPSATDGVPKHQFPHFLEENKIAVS
Technique: universal PBM
Form: double-stranded DNA, one strand shown
Medium: in vitro
Concentration: 600 nM
Notes: 8-mer, flanks averaged, mean of replicates
Direction: higher = stronger binding
Oligonucleotide | E-score
GTTCGGAA | -0.0806
ATTGAGAG | 0.0672
ACGTCTCA | -0.0259
GGCTTTAC | -0.103
CCGGCCGA | -0.314
CAGAAAGC | -0.0974
AATGCGAC | 0.0343
GCTACAAA | 0.165
AACTACAT | 0.192
GAGACGCC | -0.252
ACCGAGTA | -0.0999
TACAGAGA | 0.07
ACGTCGTA | -0.0886
AACAATCA | 0.224
GCGACAGA | -0.181
CAGGAGCG | -0.146
AGTTTGCC | -0.0473
GCGATATA | 0.159
CGGCCCGA | -0.281
CGCCAAAC | -0.164
AAGGGGTA | -0.0703
TGCACAAA | 0.198
CGCACCGA | -0.28
ACAGGGAG | -0.244
ATAGATGG | 0.029

Series 5
Target: Interferon regulatory factor 7, full length, phosphomimetic (IRF7, Homo sapiens, UniProt Q92985, residues 1-503, S471D/S472D/S475D/S476D/S477D/S483D/S484D/S487D)
Chain of UniProt Q92985 (whole entry, unmodified, looked up): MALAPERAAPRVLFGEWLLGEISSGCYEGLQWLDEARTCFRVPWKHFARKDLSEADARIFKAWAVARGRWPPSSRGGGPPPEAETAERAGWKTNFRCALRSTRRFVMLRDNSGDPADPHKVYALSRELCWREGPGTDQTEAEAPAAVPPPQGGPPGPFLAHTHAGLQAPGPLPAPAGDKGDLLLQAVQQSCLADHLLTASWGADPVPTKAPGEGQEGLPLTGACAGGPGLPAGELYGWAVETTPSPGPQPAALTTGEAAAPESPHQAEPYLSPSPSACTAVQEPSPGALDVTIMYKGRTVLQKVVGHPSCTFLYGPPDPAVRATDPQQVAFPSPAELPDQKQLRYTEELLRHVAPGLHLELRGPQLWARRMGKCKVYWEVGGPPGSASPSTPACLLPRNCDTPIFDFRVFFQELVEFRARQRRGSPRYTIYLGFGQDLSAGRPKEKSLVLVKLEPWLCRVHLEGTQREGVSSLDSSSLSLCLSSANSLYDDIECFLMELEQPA
Technique: protein-binding microarray
Form: double-stranded DNA, one strand shown
Medium: in vitro
Concentration: 2200 nM top
Notes: 60-bp whole probe
Together with: salmon DNA 0.4 mg/ml
Baseline: random background probes
Direction: higher = stronger binding
All sequences stand within: GCCTAGCAC … GTCTTGATTCGCTTGACGCTGCTG
Oligonucleotide | fitted relative affinity [z-score]
TCAGGACTGGGGTTTCGGTTAGTGCTA | 2.37
TGAGGACTGGGACTGGGTTAGTGCTAG | -1.06
GACGATTTCGGGGCTGGAGACGTGCTA | 1.01
TCATTTGTCATCTATAATACTGTGCTA | 1.49
TCACACACCATTCTCGGACTGTGCTAG | 1.66
GCCGATATCAGTATCGAGACGTGCTAG | 0.614
GACGGACTGCTGTTCCTGACGTGCTAG | 0.506
TTAGGTCTCGGTCTCGATTAGTGCTAG | 0.541
TTAGGACTGGACTGTCGGTTAGTGCTA | -0.428
TAGTTTTACTTTCTATCTCTGTGCTAG | 6.23
GACGAACTGTGGTTTCGAGACGTGCTA | 1.93
TGATGTCTGGGTCTTGGTTCGTGCTAG | 0.411
GACGGTTTCCTTTTCCTGAAGTGCTAG | 5.17
TACGGTTCCCTTTTCCTGACGTGCTAG | 2.92
ATAGGTTTCCTTATCCTTTAGTGCTAG | 2.2
GACGGACTGGGACTGGGGGCGTGCTAG | -0.205
GACGGTTTCGGTTCCGAGACGTGCTAG | 10.5
TTAGGTATCCTTCTTCTTTAGTGCTAG | 0.954
TTAGGACTGGGGACCGGGTTAGTGCTA | -1.02

Some of these lines once more (series 5):
Oligonucleotide | fitted relative affinity [z-score]
GCCGATATCAGTATCGAGACGTGCTAG | 0.614
GACGGACTGCTGTTCCTGACGTGCTAG | 0.506
TTAGGTCTCGGTCTCGATTAGTGCTAG | 0.541
TTAGGACTGGACTGTCGGTTAGTGCTA | -0.428
TAGTTTTACTTTCTATCTCTGTGCTAG | 6.23
GACGAACTGTGGTTTCGAGACGTGCTA | 1.93
